Published values collected from several papers.
Each line is one published result; not all experiments were run side by side.
Sample: plasma

SMILES	system	conditions	Tmax [min]
CC12CC3CC(C)(C1)CC(NC(=O)Nc1ccc(C(=O)N4CCC[C@H](C(N)=O)C4)cc1F)(C3)C2	Sprague-Dawley rat	intravenous, 10 mg/kg	4.8
CC(C)(C)C(=O)Nc1ccc2[nH]c(CN3CCC(N(CCCN4CCOCC4)CC4OC(n5cnc6c(N)ncnc65)C(O)C4O)CC3)nc2c1 (stereo not shown)	male Sprague-Dawley rat	intraperitoneal, 20 mg/kg	11.4
C[Si]1(C[C@H](CN)CC(=O)O)CCCC1	male Sprague-Dawley rat	oral, 30 mg/kg, single dose	30
Cc1ccc(OCC(=O)N(Cc2cccs2)c2ccn[nH]2)cc1	male Sprague-Dawley rat	intravenous, 1 mg/kg, single dose	1.8
C#Cc1cccc(Nc2ncnc3cc(OC)c(OCCCN4CCOCC4)cc23)c1	Sprague-Dawley rat	oral, 40 mg/kg	140
CCNC(=O)[C@@H]1CCCN1C(=O)[C@H](CCCNC(=N)N)NC(=O)[C@H](CC(C)C)NC(=O)[C@@H](CC(C)C)NC(=O)[C@H](Cc1ccc(O)cc1)NC(=O)[C@H](CO)NC(=O)[C@H](Cc1c[nH]c2ccccc12)NC(=O)[C@H](Cc1c[nH]cn1)NC(=O)[C@@H]1CCC(=O)N1	male Sprague-Dawley rat	subcutaneous, 12.5 mg/kg, single dose	30
C[Si](C)(C)C[C@@H](CN)CC(=O)O	male Sprague-Dawley rat	oral, 100 mg/kg, single dose	60
CCOC(=O)c1cc2c(N)c(C(=O)OC)sc2nc1C	male Sprague-Dawley rat	subcutaneous, 100 mg/kg	45
CC12CC3CC(C)(C1)CC(NC(=O)Nc1ccc(C(=O)N4CCCC(C(N)=O)C4)cc1)(C3)C2 (stereo not shown)	Sprague-Dawley rat	intravenous, 10 mg/kg	4.8
C[Si]1(C)CNC(=O)c2ccccc21	rat	oral, 5 mg/kg, single dose	48
CN1CCN(c2ccc(Nc3ncc(Cl)c(Nc4ccccc4P(C)(C)=O)n3)cc2Br)CC1	male Sprague-Dawley rat	oral, 25 mg/kg	54
COc1c2c(cc3oc(CO)cc(=O)c13)O[C@H](C(C)(C)O)C2	male Sprague-Dawley rat	oral, 2 mg/kg	60
NC(=O)c1cccnc1.O.O=c1[nH]cc(F)c(=O)[nH]1.O=c1[nH]cc(F)c(=O)[nH]1.O=c1[nH]cc(F)c(=O)[nH]1	rat	oral, 0.06 mmol/kg	15
N=C(N)NCCC[C@H](NC(=O)[C@@H]1CCCN1C(=O)[C@H](Cc1ccccc1)NC(=O)[C@@H]1CCCN1C(=O)[C@H](Cc1c[nH]cn1)NC(=O)[C@@H](N)Cc1ccccc1)C(=O)O	male Sprague-Dawley rat	oral, 50 mg/kg	5
Cn1cc(-c2cc(N3CCCS3(=O)=O)ccc2N[C@H]2CC[C@H](C)CC2)c2cc[nH]c2c1=O	Sprague-Dawley rat	oral, 3 mg/kg	60
Cc1cc(/C=C2\CN(C(C)C)C/C(=C\c3cc(C)c(O)c(C)c3)C2=O)cc(C)c1O	female Sprague-Dawley rat	intravenous, 20 mg/kg	3
N#Cc1cnc2cc(OCC3CCNCC3)c(F)cc2c1Nc1cc(F)c(OCc2cccc(Cl)n2)cc1Cl	male Sprague-Dawley rat	oral, 100 mg/kg	180
COc1cc2ncnc(Oc3ccc(Nc4nccc5[nH]cc(-c6ccc(F)cc6)c(=O)c45)cc3F)c2cc1OC	male Sprague-Dawley rat	intravenous, 5 mg/kg	1.8
Cc1cc(/C=C/C#N)cc(C)c1Oc1nc(NC2CCN(Cc3ccc(P(C)(C)=O)cc3)CC2)nc2ccsc12	male Sprague-Dawley rat	intravenous, 2 mg/kg	0

Some of these lines once more:
SMILES	system	conditions	Tmax [min]
C[Si](C)(C)C[C@@H](CN)CC(=O)O	male Sprague-Dawley rat	oral, 100 mg/kg, single dose	60
CCOC(=O)c1cc2c(N)c(C(=O)OC)sc2nc1C	male Sprague-Dawley rat	subcutaneous, 100 mg/kg	45
